Published values collected from several papers.
Lines come from different studies, so protocols differ. “And” joins repeats or separate records; there may be more than shown. Numbers after ± are the reported error.

Compound | test | test system | conditions | scale | endpoint | value
O=C(O)CCCOc1ccc(F)cc1-c1cc(-c2ccccc2C(F)(F)F)n(-c2ccccc2)n1 | – | Crl:CD(SD) rats, female, plasma | iv, 25 µg/kg, 14 days | – | prothrombin time | 9.5 s
CC(C)[C@@H]1NC(=O)CNC(=O)[C@H](CC(N)=O)NC(=O)[C@H](CCCNC(=N)N)NC(=O)[C@H](Cc2ccc(O)cc2)NC(=O)[C@H](C(C)C)NC(=O)[C@@H](NC(=O)[C@@H](NC(=O)[C@H](CC(N)=O)NC(=O)[C@H](Cc2c[nH]c3ccccc23)NC(=O)[C@H](C)NC(=O)[C@H](Cc2ccccc2)NC(=O)CN)C(C)C)CSSC[C@@H](C(=O)N[C@@H](Cc2cnc[nH]2)C(=O)N[C@@H](CCCNC(=N)N)C(=O)N[C@@H](CCCNC(=N)N)C(=O)N[C@@H](C)C(=O)N[C@@H](CC(N)=O)C(N)=O)NC(=O)[C@H](C(C)C)NC(=O)[C@H](CCCNC(=N)N)NC1=O | HPLC | mouse mammary gland homogenate | 2560 µM, 20.00 h, 37 °C, 50 mg/mL tissue | – | remaining peptide | 27.9% and 26.2% and 22.5%
C[C@]1(CO)Cc2ncn(-c3ccc(C#N)c(Cl)c3)c2C(=O)O1 | – | human | all treatments, European food-effect part | – | drug-related abnormal skin odour | 0%
O=C(c1ccc(F)c(F)c1Nc1ccc(I)cc1F)N1CC(O)([C@@H]2CCCCN2)C1 | – | human patients | oral, dose not given, dose escalation, suspension | – | treatment-related AE causing dose modification | 31%
CCCCCCCCCCC[C@H](OC1OC[C@H](O)[C@@H](O)[C@@H]1O)[C@H](O)[C@H](O)C[C@@H]1CC(=O)N[C@H](CO)C(=O)N[C@H]([C@H](O)c2ccc(O)cc2)C(=O)N[C@H](CCN)C(=O)NCC(=O)N[C@@H](CC(N)=O)C(=O)N[C@@H](CO)C(=O)N[C@@H]([C@H](O)C(N)=O)C(=O)N1 (stereo partly drawn) | LC-MS/MS | rabbit plasma | 200 ng/mL, 3 freeze-thaw cycles | baseline: nominal concentration | freeze-thaw stability, deviation | -14.3%
O=[N+]([O-])NC1=NCCN1Cc1ccc(Cl)nc1 | ultrafiltration | cow milk whey | 200 nM nominal in whole milk | – | dose fraction in permeate | 62.1%
CC(=O)c1c(C)c2cnc(Nc3ccc(C4CCN(CCS(C)(=O)=O)CC4)cn3)nc2n(C2CCCC2)c1=O | – | human, plasma | oral, 50 mg twice daily, day 1, single dose, with: letrozole | – | AUC(0-inf) | 0.459 µg·h/mL
Cc1ccc(F)c2cc(C(=O)N[C@@H]3CCC[C@H](N4CC[C@H](N(C)S(C)(=O)=O)C4)C3)[nH]c12 | – | CD1 mouse | intravenous, 1 mg/kg, 1 h | – | plasma concentration | 0.0662 µg/mL
COc1cc(C(=O)NC2CCN(C)CC2)c(F)cc1Nc1ncc(C(F)(F)F)c(Oc2cccc3c2C(=O)N(C)C3)n1 | – | human patients, plasma | oral, 10 mg single dose, geometric mean | – | mean residence time | 24 h
CCN1[C@@H](C(=O)NC23CCC(C(=O)O)(CC2)CC3)[C@H](c2cccc(Cl)c2F)[C@]2(C(=O)Nc3cc(Cl)ccc32)C12CCCCC2 | – | patients with advanced solid tumours | oral, dose not given, all doses | – | Leukopenia incidence | 57.1%
C[C@]1(O)C[C@@](N)(c2ccc(-c3nc4n(c3-c3ccccc3)COc3ccncc3-4)cc2)C1 | – | human, advanced or metastatic solid tumours | 16 mg once daily, dose-response cohort | – | patients with Stomatitis TEAE | 0%
C[C@@H]1OC(=O)NN=C1c1ccc(-c2ccc(F)cc2)c(C(F)(F)F)c1 | phase I trial, refers to: Cough worst grade 1 | human patients | 5 mg once daily | – | patients with adverse event | 0%
CCCCCCCCCCCCCCCC(=O)N[C@@H](CCC(=O)NCCCC[C@H](NC(=O)[C@H](CC(=O)O)NC(=O)[C@H](CO)NC(=O)[C@@H](NC(=O)[C@H](Cc1ccccc1)NC(=O)[C@@H](NC(=O)CNC(=O)[C@H](CCC(N)=O)NC(=O)[C@H](CO)NC(=O)[C@@H](N)Cc1c[nH]cn1)[C@@H](C)O)[C@@H](C)O)C(=O)N[C@@H](CO)C(=O)N[C@@H](CCC(=O)O)C(=O)N[C@@H](Cc1ccc(O)cc1)C(=O)N[C@@H](CC(C)C)C(=O)N[C@@H](CC(=O)O)C(=O)N[C@@H](CO)C(=O)N[C@@H](CCC(=O)O)C(=O)N[C@@H](CCCNC(=N)N)C(=O)N[C@@H](C)C(=O)N[C@@H](CCCNC(=N)N)C(=O)N[C@@H](CC(=O)O)C(=O)N[C@@H](Cc1ccccc1)C(=O)N[C@H](C(=O)N[C@@H](C)C(=O)N[C@@H](Cc1c[nH]c2ccccc12)C(=O)N[C@@H](CC(C)C)C(=O)N[C@@H](CCC(=O)O)C(=O)N[C@@H](C)C(=O)NCC(=O)NCC(=O)O)C(C)C)C(=O)O | – | human, all renal groups | sc, 100 µg single dose | – | abdominal distension | 5.4%
CCC[C@H]1CC[C@H](c2ccc(-c3ccc(F)cc3)cc2)CC1 | – | human mother-newborn pairs, maternal serum | – | – | mean serum concentration | 0.00055 µg/mL
NCCCC[C@@H]1NC(=O)[C@@H](Cc2c[nH]c3ccccc23)NC(=O)[C@H](c2ccccc2)NC(=O)[C@@H]2C[C@@H](OC(=O)NCCN)CN2C(=O)[C@H](Cc2ccccc2)NC(=O)[C@H](Cc2ccc(OCc3ccccc3)cc2)NC1=O | – | healthy human volunteers | 1950 µg twice daily | – | subjects with adverse event Hyperhidrosis | 4%
C[C@@H](NC(=O)N1C(=O)[C@H](Cc2ccnc(N)c2)[C@H]1C(=O)O)C1CCCCC1 | – | healthy adult Chinese volunteers | continuous intravenous infusion, 0.6 mg/kg/h, 5-day infusion, CTCAE 5.0 grading | – | incidence of abnormal liver function | 12.5%
CO[C@H]1C[C@@H]2CC[C@@H](C)[C@@](O)(O2)C(=O)C(=O)N2CCCC[C@H]2C(=O)O[C@H]([C@H](C)C[C@@H]2CC[C@@H](OC(=O)NCCOCCOCCOCCOCCOCCOCCOCCOCCC(=O)N3CCc4cc(Cn5nc(-c6ccc7oc(N)nc7c6)c6c(N)ncnc65)ccc4C3)[C@H](OC)C2)C[C@@H](O)[C@H](C)/C=C(\C)[C@@H](O)[C@@H](OC)C(=O)[C@H](C)C[C@H](C)/C=C/C=C/C=C/1C | phase 1 dose escalation | advanced solid tumour patients | intravenous, 16 mg weekly, any grade | – | any TEAE incidence | 100%
CN1CC[C@@H](c2c(O)cc(O)c3c(=O)cc(-c4ccc(C(F)(F)F)cc4Cl)oc23)[C@@H]1CO | refers to: Sepsis | relapsed B-cell malignancies | oral, 150 mg, grade 3-4, intermittent dosing | – | patients with adverse event | 0%

Compound | test | test system | conditions | scale | endpoint | value
O=C(Nc1ccc2c(c1)B(O)OC2)c1ccc(OCc2ccc(Cl)cc2)cc1 | PAMPA | – | 200 µM, 5 h, pH 7.4 | – | membrane retention | 11.5%
Brc1ccc(Oc2cc(Br)c(Br)cc2Br)c(Br)c1 | – | whole cow milk | 20 nM nominal | – | dose fraction in skim milk | 8.73%
Cn1cncc1-c1c(F)cncc1NC(=O)c1c(N)nn2cc(F)cnc12 | – | human patients | oral, 180 mg once daily | – | grade ≥3 white cell decrease incidence | 0%
CC(C)(O)c1cc(Nc2cc(Oc3cn(C4CC4)nc3C3CCOCC3)ccn2)ccn1 | Cough | patients with advanced cancer, Japanese cohort | oral, dose not given, grade ≥3 | – | treatment-related adverse events | 0%
Cn1nc(NS(C)(=O)=O)c2c(Cl)ccc(-n3c([C@H](Cc4cc(F)cc(F)c4)NC(=O)Cn4nc(C(F)F)c5c4C(F)(F)[C@@H]4C[C@H]54)nc4nc(OCCC(F)(F)F)ccc4c3=O)c21 | refers to: total bile acids increased | human | 200 mg, powder in bottle | – | drug-related adverse events | 0%
COc1cc2c(Oc3ccc4[nH]c(C)cc4c3F)ccnc2cc1OCC1(N)CC1 | – | paediatric refractory sarcoma patients | 12 mg | – | Cholesterol elevation incidence | 18.2%
COc1ncccc1-c1cnn2ccc(N3CCN(C(=O)OC(C)C)CC3)nc12 | – | rat, rotarod test, brain | 30 mg/kg, 180 min | – | drug concentration | 12 µM
O=C1Nc2cc3[nH]nc(-c4ccncc4)c3cc2CN1Cc1ccccc1 | CTCAE v4.03 | advanced solid tumour patients | intravenous, 11.3 mg/kg | – | patients with infusion reaction | 33%
CC(=O)NCC(=O)NCC(=O)N[C@H](C(=O)N[C@@H](Cc1ccc(O)cc1)C(=O)N[C@@H](CO)C(=O)N[C@H]1CSSC[C@@H](C(=O)N[C@@H](CCCNC(=N)N)C(=O)N2CCC[C@H]2C(=O)N[C@@H](CCC(N)=O)C(=O)N[C@@H](CCCNC(=N)N)C(=O)NCC(=O)NCCC(=O)N[C@@H](CCCCNC(=O)CN(CC(=O)NCCCC[C@H](NC(=O)CCNC(=O)CNC(=O)[C@H](CCCNC(=N)N)NC(=O)[C@H](CCC(N)=O)NC(=O)[C@@H]2CCCN2C(=O)[C@H](CCCNC(=N)N)NC(=O)[C@@H]2CSSC[C@H](NC(=O)[C@H](CO)NC(=O)[C@H](Cc3ccc(O)cc3)NC(=O)[C@@H](NC(=O)CNC(=O)CNC(C)=O)[C@@H](C)O)C(=O)N[C@@H](Cc3c[nH]cn3)C(=O)N[C@@H](Cc3ccccc3)C(=O)NCC(=O)N[C@@H](C)C(=O)N[C@@H](CC(C)C)C(=O)N[C@@H]([C@@H](C)O)C(=O)N[C@@H](Cc3c[nH]c4ccccc34)C(=O)N[C@@H](C(C)C)C(=O)N2)C(N)=O)C(=O)CCN)C(N)=O)NC(=O)[C@H](C(C)C)NC(=O)[C@H](Cc2c[nH]c3ccccc23)NC(=O)[C@H]([C@@H](C)O)NC(=O)[C@H](CC(C)C)NC(=O)[C@H](C)NC(=O)CNC(=O)[C@H](Cc2ccccc2)NC(=O)[C@H](Cc2c[nH]cn2)NC1=O)[C@@H](C)O | MSD immunoassay | BALB/c mice, healthy female, serum | subcutaneous, 0.08 mg/kg, 144 h, LLOQ 2.0 ng/mL | – | serum concentration | not detected
O=C(Nc1ccccc1)C1CCN(C(=O)Oc2cccnc2)CC1 | – | healthy women | oral, 20 mg, 7 days | – | Gastrointestinal disorders adverse events | 21.4%
COc1ccc(C[C@@H]2NC(=O)[C@H]([C@@H](C)O)NC(=O)[C@@H]3[C@@H]4CCN3C(=O)[C@@H]3Cc5cn(c6ccc(F)cc56)CCCCCCN(Cc5ccc(cc5)CCNC(=O)[C@]5(C)CCCN5C2=O)C(=O)CCC(=O)N[C@@H](C)C(=O)N[C@H](CNC(=O)CCCCC[N+](C)(C)C)C(=O)N[C@@H](Cc2cccc(c2)CNC(=O)CO4)C(=O)N3)cc1 | refers to: Constipation | humans | concentration not given, Study-003 | – | participants with adverse event | 3.2%
CN1CCN(S(=O)(=O)c2cc([N+](=O)[O-])ccc2N(CCOS(C)(=O)=O)CCOS(C)(=O)=O)CC1 | – | NSG mice female, plasma | intraperitoneal, 25 mg/kg, 1.5 h | – | concentration | 0.18 µM
CCN1CCN(Cc2ccc(Nc3ncc(F)c(-c4cc(F)c5nc6n(c5c4)[C@H](C)CCC6)n3)nc2)CC1 | – | advanced solid tumour patients | dose not given, Phase Ia monotherapy | – | Leukopenia incidence, grade ≥3 | 4.2%
C/C(=N\C#N)N(C)Cc1ccc(Cl)nc1 | – | test soil | 0.12 mg/kg nominal, 0 days | – | measured soil concentration | 0.06 mg/kg dry soil
Clc1ccc(-c2ccccc2)cc1 | – | Sprague-Dawley rats, female, serum | inhalation, 23 µg/rat, 1 h after exposure | – | alkaline phosphatase | 179 ± 8 U/L
COc1cccc(Oc2ccccc2NC(=O)CNC(=O)c2cccc3ccccc23)c1 | – | esterase-deficient SCID mice, male | oral, 100 mg/kg/day, 14 days, toxicity study | – | total bilirubin | 0.1 mg/dL
O=c1nc(NO)ccn1[C@@H]1O[C@H](CO)[C@@H](O)[C@H]1O | – | rat amniotic fluid dialysate | 25 ng/mL, low concentration, three cycles, with: molnupiravir 5 ng/mL | – | freeze-thaw stability | 104 ± 2.3%
CCc1ccc(CC/C=C/c2ccc3c(c2)C(=O)CC3)cc1 | – | Sprague-Dawley rat, female | oral, 450 mg/kg/day, 14 days | – | HDW | 23.1 g/L

Excerpt of the above:
Compound | test | test system | conditions | scale | endpoint | value
CCC[C@H]1CC[C@H](c2ccc(-c3ccc(F)cc3)cc2)CC1 | – | human mother-newborn pairs, maternal serum | – | – | mean serum concentration | 0.00055 µg/mL
CN1CC[C@@H](c2c(O)cc(O)c3c(=O)cc(-c4ccc(C(F)(F)F)cc4Cl)oc23)[C@@H]1CO | refers to: Sepsis | relapsed B-cell malignancies | oral, 150 mg, grade 3-4, intermittent dosing | – | patients with adverse event | 0%
CCCCCCCCCCCCCCCC(=O)N[C@@H](CCC(=O)NCCCC[C@H](NC(=O)[C@H](CC(=O)O)NC(=O)[C@H](CO)NC(=O)[C@@H](NC(=O)[C@H](Cc1ccccc1)NC(=O)[C@@H](NC(=O)CNC(=O)[C@H](CCC(N)=O)NC(=O)[C@H](CO)NC(=O)[C@@H](N)Cc1c[nH]cn1)[C@@H](C)O)[C@@H](C)O)C(=O)N[C@@H](CO)C(=O)N[C@@H](CCC(=O)O)C(=O)N[C@@H](Cc1ccc(O)cc1)C(=O)N[C@@H](CC(C)C)C(=O)N[C@@H](CC(=O)O)C(=O)N[C@@H](CO)C(=O)N[C@@H](CCC(=O)O)C(=O)N[C@@H](CCCNC(=N)N)C(=O)N[C@@H](C)C(=O)N[C@@H](CCCNC(=N)N)C(=O)N[C@@H](CC(=O)O)C(=O)N[C@@H](Cc1ccccc1)C(=O)N[C@H](C(=O)N[C@@H](C)C(=O)N[C@@H](Cc1c[nH]c2ccccc12)C(=O)N[C@@H](CC(C)C)C(=O)N[C@@H](CCC(=O)O)C(=O)N[C@@H](C)C(=O)NCC(=O)NCC(=O)O)C(C)C)C(=O)O | – | human, all renal groups | sc, 100 µg single dose | – | abdominal distension | 5.4%
NCCCC[C@@H]1NC(=O)[C@@H](Cc2c[nH]c3ccccc23)NC(=O)[C@H](c2ccccc2)NC(=O)[C@@H]2C[C@@H](OC(=O)NCCN)CN2C(=O)[C@H](Cc2ccccc2)NC(=O)[C@H](Cc2ccc(OCc3ccccc3)cc2)NC1=O | – | healthy human volunteers | 1950 µg twice daily | – | subjects with adverse event Hyperhidrosis | 4%
